Measured values of several laboratories.
Each numbered part is a random draw from the data of one study; scales do not carry over between parts.

Block 1
Target: Ras GTPase-activating protein-binding protein 1, RRM domain (G3BP1, Homo sapiens, UniProt Q13283)
Sequence of UniProt Q13283 (whole entry, looked up): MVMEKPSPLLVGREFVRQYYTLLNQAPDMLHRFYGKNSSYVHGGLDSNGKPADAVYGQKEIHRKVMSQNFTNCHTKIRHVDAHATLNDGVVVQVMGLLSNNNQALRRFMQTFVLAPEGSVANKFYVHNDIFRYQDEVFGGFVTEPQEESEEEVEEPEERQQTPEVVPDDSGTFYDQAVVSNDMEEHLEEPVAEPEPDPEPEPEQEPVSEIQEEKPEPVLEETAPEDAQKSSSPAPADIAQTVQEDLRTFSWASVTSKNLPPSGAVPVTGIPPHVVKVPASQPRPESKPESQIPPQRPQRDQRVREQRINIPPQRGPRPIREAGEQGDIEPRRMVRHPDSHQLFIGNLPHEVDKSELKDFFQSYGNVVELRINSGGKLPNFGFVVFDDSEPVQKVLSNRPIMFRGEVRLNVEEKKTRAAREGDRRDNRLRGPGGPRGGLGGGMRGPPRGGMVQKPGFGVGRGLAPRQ
Technique: RNA Bind-n-Seq
Form: RNA
Sample: in vitro
Tested at: 1 µM
Setting: whole 134-nt RNA, ends assumed
Together with: 150 mM KCl
Reference: input library
Direction: higher = stronger binding
Sequence	log2 enrichment
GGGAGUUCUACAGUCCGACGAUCUCAGCAACCACCUCAACUCAUUGACUCCGCCAACAUCCGUCAGGAGGAUGCCUUUGAUAACAACAGUGACAUUGCUGAAGAUGGUGGCCAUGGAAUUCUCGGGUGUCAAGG	-0.193
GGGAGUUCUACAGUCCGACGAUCGCAUGAAGUAAAAACAAAUGGAAAUGCUUCGGAUAGUGGCAGGGGUGGGGGUUGCUAAGGAAAGGGUGGGAUGGGAGUGGGUAAAGAGUUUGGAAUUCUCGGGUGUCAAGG	0.837
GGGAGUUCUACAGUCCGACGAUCGUCCUGUGCUACACAUCGUAUGUACCGAAUCGGGGAAAGGGGUGGGGAAAAAAAGGGGAAAGUAUUAUGUUACGCCGUUCGGAUCUGCACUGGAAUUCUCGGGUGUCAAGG	0.784
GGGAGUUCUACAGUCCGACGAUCUGGGAGGUGGAUUUUGUUUAUUUUUUUAGCUCAUUUCCAGGGGUGUGAAUUUUUUUUUAAUAUGUGUCAUGAAUAAAGUUGUUUUUGAAAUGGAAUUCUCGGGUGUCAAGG	1.76
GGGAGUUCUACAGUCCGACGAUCUGUGCUACACAUCGUAUGUACCGAAUCGGGGCCCCCCCGGGCCCCCCCGGGCCCCCCCGGGGAAAGUAUUAUGUUACGCCGUUCGGAUCUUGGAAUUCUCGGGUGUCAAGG	-0.71
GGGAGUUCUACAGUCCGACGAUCUCCUCAAGUCCUGUGCUACACAUCGUAUGUACCGAAUCGGCGGGGCGGGCGGAAAGUAUUAUGUUACGCCGUUCGGAUCUGCACUUCCAGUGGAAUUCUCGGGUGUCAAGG	-0.284
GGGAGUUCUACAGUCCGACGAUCGCAGGAAGUAAAAACAAAUGGAAAUGCUUCGGAUAGUGGCAGGGGUGGUGGUUGCUAAGGAAAGGGUGGGAUGGGAGUGGGUAAAGAGUUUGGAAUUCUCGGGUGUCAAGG	0.91
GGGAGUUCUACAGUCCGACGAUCGCAGGAAGUAAAAACAAAUGGAAAUGCUUCGGAUAGUGGCAGGGGUGGGGGUUGCUAAGGAAAGGGUGGGUUGGGAGUGGGUAAAGAGUUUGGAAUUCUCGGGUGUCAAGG	0.987
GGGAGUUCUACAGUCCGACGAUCUGGCCGUGGUGGCAUGCGGGGAGGAAGAGGUGGCCUCAUGGAUCGUGGUGGUCCCGGUGGAAUGUUCAGAGGUGGCCGUGGUGGAGACAGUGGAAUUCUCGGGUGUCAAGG	0.611
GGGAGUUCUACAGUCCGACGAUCCACAGACAACACGCACCCACACAGACACAGAGGGAAGGGCUUGGGAUGGGGACAGGGUGCACAGCAGGGCGGGGUAGGACCCCAGCCCCUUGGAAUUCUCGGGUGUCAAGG	-0.232

Block 2
Target: RING finger protein unkempt homolog, zinc fingers 1-6, GST-SBP tag (UNK, Homo sapiens, UniProt Q9C0B0, residues 30-357)
Sequence of UniProt Q9C0B0 (30-357, looked up): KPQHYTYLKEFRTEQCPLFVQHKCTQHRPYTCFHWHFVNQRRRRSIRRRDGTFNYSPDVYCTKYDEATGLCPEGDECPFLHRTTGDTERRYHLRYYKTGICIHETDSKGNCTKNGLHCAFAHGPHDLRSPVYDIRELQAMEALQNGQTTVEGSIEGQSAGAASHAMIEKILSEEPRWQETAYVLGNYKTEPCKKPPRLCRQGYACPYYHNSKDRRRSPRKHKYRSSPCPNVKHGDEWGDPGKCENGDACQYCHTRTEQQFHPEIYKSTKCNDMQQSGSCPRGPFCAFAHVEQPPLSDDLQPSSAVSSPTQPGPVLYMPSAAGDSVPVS
Technique: RNA Bind-n-Seq
Form: RNA
Sample: in vitro
Tested at: not given
Setting: RNA with constant flanks, human and mouse sites, ends assumed
Reference: input RNA pool
Direction: higher = stronger binding
Sequence	bound/input enrichment
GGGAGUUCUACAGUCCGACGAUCCUCAAGCUACCAAAAAGAAAGUGGCAAUAUAUUGACUCAGGAUCUCAAAGCUGGGUGUUUUAGCAUUACUGUGUAAAGACUUGAAGGGACAGAAGUGAAGAAAAUAAGCUGCAAUUUUGUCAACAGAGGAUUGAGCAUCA	0.288 ratio
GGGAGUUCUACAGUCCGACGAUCCCAACGGCCUGAGGAGAGCGGGGCACGGGGUCUCUUUAGCUUUUACAAGUUUUAGGAUUUUUUCAAGCAGGGAUCAAUCCCGUGGCCAUUUUUUGUGGUACUUUGGCCUCAAUUCUUCACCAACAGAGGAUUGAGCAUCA	1.22 ratio
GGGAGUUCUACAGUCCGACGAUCAGUGGAGAUGCUUACACAUUGUCAAACAUAUGUAUAUAUUCUUUUAUCACACACAAAUGGCAGCAUAUUGGACACUUUUUGUUUUUUGCUCCUUCUGUUCCUUCACUUAAUAAUAUCACGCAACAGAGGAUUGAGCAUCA	0.55 ratio
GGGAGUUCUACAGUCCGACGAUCGAUGGACUUACUGUUCACCUUGUCAUUAAAACACAAAACAGGCCUCAGGAUCAUUCAGCUCAGCAAACAAAUACAGCUGGAAGCAAUGUUACUACAUCAUCAACUCCUAAUAGUAACUCUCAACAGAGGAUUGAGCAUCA	0.524 ratio
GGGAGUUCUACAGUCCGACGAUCAAAGAUGAGUCUGAAGUUAUAUCGCAAAAUGAAACGUGCUCUCCAGCAGAAGUAGAAAGUAAUGAAAAGGACAACAAACCUGAGGAAGAAGAGCAAGUAAUACAUGAAGAUGAUGAAAGACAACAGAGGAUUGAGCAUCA	0.354 ratio
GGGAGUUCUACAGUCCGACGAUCUAAAAACCGUUGUUUGCUUUAAAUUUUCAUAAACUGGAAUCCUUUCACCCGCUCCUACAGCUAACCCUCACAAGCAUGAAGUGCUGUGGCUGUUCCUUAUCCUAAUGAUGCGCUUUUGUCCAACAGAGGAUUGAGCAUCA	0.384 ratio

Block 3
Target: Interferon regulatory factor 5, full length, phosphomimetic (IRF5, Homo sapiens, UniProt Q13568-2, residues 1-514, S451D/S453D/S456D/S462D)
Technique: protein-binding microarray
Form: double-stranded DNA, one strand shown
Sample: in vitro
Tested at: 940 nM top
Setting: 60-bp whole probe
Together with: salmon DNA 0.4 mg/ml
Reference: random background probes
Direction: higher = stronger binding
Sequence	fitted relative affinity [z-score]
GCCTAGCACGGCGGTTTCGGTATCGGGACGTGCTAGGTCTTGATTCGCTTGACGCTGCTG	14.2
GCCTAGCACTTAGGTCTCGACTATCGGTTAGTGCTAGTCTTGATTCGCTTGACGCTGCTG	2.17
GCCTAGCACTCACCACCCACTCTGGCACTGTGCTAGGTCTTGATTCGCTTGACGCTGCTG	-0.0721
GCCTAGCACCTGATCCTTCATTTGAAAGAGTGCTAGGTCTTGATTCGCTTGACGCTGCTG	-0.000364

Mixed results
Molecule	target	test	test system	conditions	how to read	quantity	value
PhoQ, residues 284 288 289 292 302 303 SLGVVW	PhoP, residues 12 14 15 18 19 NFCKL (Escherichia coli, UniProt P23836)	Sort-seq, measured: YFP reporter	E. coli	PhoQ-PhoP variant library, together with: 10 µM Mg2+	reference: high Mg2+ state, higher = stronger signaling	fold induction	15.9

Excerpt of the above (block 1):
Sequence	log2 enrichment
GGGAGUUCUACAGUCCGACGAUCGCAGGAAGUAAAAACAAAUGGAAAUGCUUCGGAUAGUGGCAGGGGUGGUGGUUGCUAAGGAAAGGGUGGGAUGGGAGUGGGUAAAGAGUUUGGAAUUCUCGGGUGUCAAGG	0.91
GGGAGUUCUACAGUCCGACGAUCGCAGGAAGUAAAAACAAAUGGAAAUGCUUCGGAUAGUGGCAGGGGUGGGGGUUGCUAAGGAAAGGGUGGGUUGGGAGUGGGUAAAGAGUUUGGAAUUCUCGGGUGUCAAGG	0.987
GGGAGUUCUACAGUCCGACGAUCUGGCCGUGGUGGCAUGCGGGGAGGAAGAGGUGGCCUCAUGGAUCGUGGUGGUCCCGGUGGAAUGUUCAGAGGUGGCCGUGGUGGAGACAGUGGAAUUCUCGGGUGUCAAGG	0.611
